Published values pooled from the literature.
Each numbered part is a random draw from the data of one study; scales do not carry over between parts. Positions count from the first letter of the parent shown.
Chain of UniProt P23975 (whole entry, looked up): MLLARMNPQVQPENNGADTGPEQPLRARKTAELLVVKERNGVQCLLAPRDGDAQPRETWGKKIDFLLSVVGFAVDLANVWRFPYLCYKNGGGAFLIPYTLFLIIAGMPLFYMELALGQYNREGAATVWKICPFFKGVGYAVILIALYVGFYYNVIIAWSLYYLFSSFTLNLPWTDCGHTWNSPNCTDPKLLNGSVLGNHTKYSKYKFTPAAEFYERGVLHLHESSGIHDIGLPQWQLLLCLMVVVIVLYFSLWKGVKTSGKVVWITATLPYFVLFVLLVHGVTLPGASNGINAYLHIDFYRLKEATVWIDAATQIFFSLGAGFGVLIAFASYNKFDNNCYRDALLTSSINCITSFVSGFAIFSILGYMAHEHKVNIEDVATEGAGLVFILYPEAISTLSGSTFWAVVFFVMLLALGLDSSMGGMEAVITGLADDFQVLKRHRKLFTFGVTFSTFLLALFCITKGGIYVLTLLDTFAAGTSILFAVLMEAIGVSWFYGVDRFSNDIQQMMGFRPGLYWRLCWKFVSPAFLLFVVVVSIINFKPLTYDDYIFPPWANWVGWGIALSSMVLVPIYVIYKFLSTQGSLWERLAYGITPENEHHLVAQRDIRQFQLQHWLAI

Block 1 — method: RNA Bind-n-Seq; form: RNA; sample: in vitro; concentration: 20 nM; notes: 6-mer, flanks averaged, single round; with: 150 mM LiCl; relative to: input library; reading: higher = stronger binding
Target: TAR DNA-binding protein 43, full length, His tag (TARDBP, Homo sapiens, UniProt Q13148, residues 1-414)
Oligonucleotide | 6-mer enrichment (R)
UGCUAA | 0.905
CUGCAC | 0.912
UGCGAA | 0.912
GCGGGC | 1.09
AAACAU | 0.821
ACGCUG | 0.862
ACGCGA | 0.835
AAUUGU | 1.04

Block 2 — method: Spec-seq; form: double-stranded DNA, one strand shown; sample: in vitro; concentration: not given; notes: whole probe, mean of replicates; relative to: not given; reading: lower = stronger binding; constant ends, left off below: GAGTCGTCTCGTCAGCAC … CCGTAGAGCACTCAGGTC
Target: Transcription factor SOX-2, HMG box (Sox2, Mus musculus, UniProt P48432, residues 41-119)
Chain of UniProt P48432 (41-119, looked up): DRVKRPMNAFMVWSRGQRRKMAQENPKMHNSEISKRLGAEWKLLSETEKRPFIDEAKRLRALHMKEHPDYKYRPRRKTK
Oligonucleotide | relative binding energy [ln ratio]
ACCTGTT | 0.158
GCCTGTT | 0.59
GACAGTT | 0.553
CATGTTT | 0.54
CATTTGC | 0.168
CCGTGTT | 0.675
CATAGCT | -0.289
CATTGAG | -1.2

Block 3 — method: DNA-protein interaction ELISA; form: double-stranded DNA, one strand shown; sample: in vitro, bacterial lysate; concentration: not given; notes: whole dsDNA probe, crude lysate protein; relative to: highest signal in screen; reading: higher = stronger binding
Target: Probable WRKY transcription factor 11, DNA-binding domain (WRKY11, Arabidopsis thaliana, UniProt Q9SV15, residues 228-325)
Construct (chain): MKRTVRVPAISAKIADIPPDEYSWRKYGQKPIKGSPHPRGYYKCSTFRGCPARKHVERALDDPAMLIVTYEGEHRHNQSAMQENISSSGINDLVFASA
Oligonucleotide | relative absorbance
AAAAAAATATTTGAGCTAGGTTATCAAAAA | 14.1 % of maximum
AAAAAAAAGCTTCGGAGTCTTGAGAAAAAA | 19 % of maximum
AAAAAAGTCTAGTCGTAAAAA | 18.7 % of maximum
AAAAAATATTCGCCGGTAGCCACGCTAAAA | 13.8 % of maximum
AAAAAAACCCTGTGTCGGCCGATAAAAAA | 14.7 % of maximum
AAAAAAGACCGCAGCAAGAATTAAATAAAA | 11.2 % of maximum
AAAAAAGGGAGTCATGCTTCTTGTTTAAAA | 16.7 % of maximum
AAAAAAGGAAAACGAGTTCATCTGGTAAAA | 14.1 % of maximum

Block 4 — target: CCNA1, cyclin fold, Cln2 fusion (human); method: yeast growth competition, sequencing; sample: yeast; notes: weak parent motif; relative to: not given; reading: higher = stronger binding
Parent: viral docking peptide; KGVKRKLFAEDSS; partner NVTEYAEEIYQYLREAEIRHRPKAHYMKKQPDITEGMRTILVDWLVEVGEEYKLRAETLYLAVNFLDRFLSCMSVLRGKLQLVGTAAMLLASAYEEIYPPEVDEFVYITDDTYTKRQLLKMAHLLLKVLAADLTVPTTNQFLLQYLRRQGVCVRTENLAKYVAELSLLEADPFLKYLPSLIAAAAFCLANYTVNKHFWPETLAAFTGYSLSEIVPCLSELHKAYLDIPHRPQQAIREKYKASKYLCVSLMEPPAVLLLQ
Substitution | normalised enrichment score
KGLKRKLFAEDSS [V3L] | 0.389
KGVKRQLFAEDSS [K6Q] | 1.29
KGVKRKLFAENSS [D11N] | 0.591
KGVKHKLFAEDSS [R5H] | 0.165
KGVKRKLFAGDSS [E10G] | 0.206
KGVKRKLQAEDSS [F8Q] | 0.25
KGVKRVLFAEDSS [K6V] | 0.775
KGVRRKLFAEDSS [K4R] | 1.74
KGVKRKIFAEDSS [L7I] | 0.533
KGVKRKEFAEDSS [L7E] | 0.355
KGVKRKLFPEDSS [A9P] | 1.29
KGVKRKLFAEESS [D11E] | 1.1
KGQKRKLFAEDSS [V3Q] | -0.292
KIVKRKLFAEDSS [G2I] | 1.17
KGVKRKLFWEDSS [A9W] | 0.726
KGVKEKLFAEDSS [R5E] | 0.0765
KGVKRKLFAEKSS [D11K] | 0.69
KPVKRKLFAEDSS [G2P] | 1.55
KMVKRKLFAEDSS [G2M] | 0.91
KYVKRKLFAEDSS [G2Y] | 0.875
KGVKRKLFAEDQS [S12Q] | 0.494
KGVERKLFAEDSS [K4E] | 0.0858
KGVKRKLFAEDPS [S12P] | 1.3
KGVKSKLFAEDSS [R5S] | -0.204
KGVKRKLFAEPSS [D11P] | 0.953

Single results of other studies
Compound | target | test | setting | measurement | value
O=C(O)[C@H]1[C@H](Cn2nnc3ccccc3c2=O)CC[C@@H]1C(=O)c1ccc(OCCC2CCOCC2)cc1 | Sodium-dependent noradrenaline transporter (SLC6A2, Homo sapiens, UniProt P23975) | ligand displacement | 10 µM | inhibition | -4.82%
